Published values of several laboratories.
Numbered parts are unrelated; each lists some results of a single study. Changes are numbered by the printed parent chain.

Study 1
Target: Fragile X messenger ribonucleoprotein 1, C-terminal low-complexity region (Fmr1, Mus musculus, UniProt P35922)
Method: RNA Bind-n-Seq
Form: RNA
Sample: in vitro
Tested at: 200 nM
Setting: whole 134-nt RNA, ends assumed
Together with: 150 mM KCl
Relative to: input library
Reading: higher = stronger binding
Constant ends, left off below: GGGAGUUCUACAGUCCGACGAUC … UGGAAUUCUCGGGUGUCAAGG
| Strand | log2 enrichment |
| --- | --- |
| UGCGGGCGGCUGAGACGCCGCCUGCCUGGCACCUAGGAGCGCAGCGGAGCCCCGACACCGCCGCCGCCGCCAUGGAGUCCGAGACCGAAC | 1 |
| CAAGUCCUGUGCUACACAUCGUAUGUACCGAAUCGGGUUUUUGGGAGGGUUUGGGAAAGUAUUAUGUUACGCCGUUCGGAUCUGCACUUC | 0.892 |
| UCUCAGCAGGCGCAUCUACACUAGUGACCUGAGGAGAGAAACCCUAACCCCACAAUGGCUGCAUCUUCUCUGAAGACGAGACUGAUGCUC | -0.251 |
| CAAGUCCUGUGCUACACAUCGUAUGUACCGAAUCGGAAAAAGGAAAGGUUUUUGGAAAGUAUUAUGUUACGCCGUUCGGAUCUGCACUUC | -0.954 |
| CCUCAAGUCCUGUGCUACACAUCGUAUGUACCGAAUCGGUUGGUUGGUUGGGAAAGUAUUAUGUUACGCCGUUCGGAUCUGCACUUCCAG | 0.213 |
| UGCUAGGCAAUGGAUCACUUGGAGUCCUUUAUUGCUGAAUGUGAUCGGAGAACUGAGCUCGCCAAGAAGCGGCUGGCAGAAACACAGGAG | 0.694 |
| UCCUGUGCUACACAUCGUAUGUACCGAAUCGGGAAAGGGUUUUUUUGGGAAAAAAAGGGAAAGUAUUAUGUUACGCCGUUCGGAUCUGCA | -0.32 |
| CCUGUGCUACACAUCGUAUGUACCGAAUCGGGGUUUGGGGAAAAAGGGGUUUUUUUGGGGAAAGUAUUAUGUUACGCCGUUCGGAUCUGC | 0.298 |
| UAACUUUAGAGGAGGAUCUGAUGGAUAUGGCAGUGGACGUGGAUUUGGGGAUGGCUAUAAUGGGUAUGGAGGAGGACCUGGAGGUGGCCA | 0.327 |
| AGUCCUGUGCUACACAUCGUAUGUACCGAAUCGGGAAAAAGGAAAAAGGGAAAAAGGGAAAGUAUUAUGUUACGCCGUUCGGAUCUGCAC | -0.55 |
| UCAAGUCCUGUGCUACACAUCGUAUGUACCGAAUCGGUUUGGAAAGGUUUUUGGAAAGUAUUAUGUUACGCCGUUCGGAUCUGCACUUCC | -0.442 |
| AAGUCCUGUGCUACACAUCGUAUGUACCGAAUCGGAAAGGUUUUUUUGGUUUUUGGAAAGUAUUAUGUUACGCCGUUCGGAUCUGCACUU | -1.24 |
| CAAGUCCUGUGCUACACAUCGUAUGUACCGAAUCGGGGAAAGGGGUGGGGUGGGGAAAGUAUUAUGUUACGCCGUUCGGAUCUGCACUUC | 1.32 |
| GCAGGAAGUAAAAACAAAUGGAAAUGCUUCGGAUAGUGGCAGGGGUGGGGGUUGCUAAGGAAAGGGUGCGAUGGGAGUGGGUAAAGAGUU | 0.257 |

Study 2
Target: CCND1, cyclin fold, Cln2 fusion (human)
Method: yeast growth competition, sequencing
Sample: yeast
Setting: weak parent motif
Relative to: not given
Reading: higher = stronger binding
Starting sequence: BRCA2 docking peptide (human); PSIKRNLLNEFDR
| Substitution | normalised enrichment score |
| --- | --- |
| R13W | 0.993 |
| S2I | 0.0995 |
| R13S | 1.02 |
| F11P | -0.348 |
| L8P | -0.324 |
| R13N | 1.17 |
| N9T | 0.482 |
| D12K | 0.426 |
| E10A | 0.273 |
| N6T | -0.123 |
| L8T | 0.454 |
| R13Y | 0.338 |
| N9M | 0.158 |
| N9A | 1.64 |
| F11G | 0.625 |
| N6V | 0.0296 |
| R13P | 0.887 |
| R5W | 0.101 |
| D12Y | 0.788 |
| S2A | 0.259 |
| L8R | -0.392 |

Study 3
Target: UBE2L3 UBC core domain (UniProt P68036)
Chain of UniProt P68036 (whole entry, looked up): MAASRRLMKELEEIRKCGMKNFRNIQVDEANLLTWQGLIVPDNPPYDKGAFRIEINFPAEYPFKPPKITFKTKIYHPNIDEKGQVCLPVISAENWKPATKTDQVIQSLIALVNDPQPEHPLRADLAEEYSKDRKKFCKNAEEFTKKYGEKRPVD
Method: yeast two-hybrid
Sample: yeast
Setting: mostly zero background
Relative to: not given
Reading: higher = stronger interaction
B1: RNF103 RING domain (UniProt O00237); chain WPADMLHCTECVVCLENFENGCLLMGLPCGHVFHQNCIVMWLAGGRHCCPVCRWPSYKKKQPY
B2: VPS8 RING domain (UniProt Q8N3P4); chain TRGLNPKQDYCSICLQQYKRRQEMADEIIVFSCGHLYHSFCLQNKECTVEFEGQTRWTCYKCSSSNKVGKLSE
B3: ZNRF4 RING domain (UniProt Q8WWF5); chain VRTFTWHNDLCAICLDEYEEGDQLKILPCSHTYHCKCIDPWFSQAPRRSCPVCKQSVAATEDSF
B4: HLTF RING domain (UniProt Q14527); chain LILSSGSDEECAICLDSLTVPVITHCAHVFCKPCICQVIQNEQPHAKCPLCRNDIHEDNLLE
B5: MARCHF1 RING domain (UniProt Q8TCQ1); chain TAPRSQSRLSVCPSTQDICRICHCEGDEESPLITPCRCTGTLRFVHQSCLHQWIKSSDTRCCELCKYDFIMETKLKPLRKWE
B6: NFX1 RING domain (UniProt Q12986); chain IEQLTTEKYECMVCCELVRVTAPVWSCQSCYHVFHLNCIKKWARSPASQADGQSGWRCPACQNVSAHVPNTY
B7: RING1 RING domain (UniProt Q06587); chain SPRSLHSELMCPICLDMLKNTMTTKECLHRFCSDCIVTALRSGNKECPTCRKKLVSKRSLR
| Molecule | lacZ reporter activity |
| --- | --- |
| B1 (RNF103 RING domain) | 0 |
| B2 (VPS8 RING domain) | 0 |
| B3 (ZNRF4 RING domain) | 0 |
| LEALSSDFLACKICLEQLRAPKTLPCLHTYCQDCLAQLADGGRVRCPECRETVPVPPEGV (TRIM56 RING domain (UniProt Q9BRZ2)) | 0 |
| B4 (HLTF RING domain) | 0 |
| ASEEEFQFLRCQQCQAEAKCPKLLPCLHTLCSGCLEASGMQCPICQAPWPLGADTP (PML RING domain (UniProt P29590)) | 0 |
| ASPKIFQKTKCSICNSALELPSVHFLCGHSFHQHCFESYSESDADCPTCLPENRKVMDMI (VPS11 RING domain (UniProt Q9H270)) | 0 |
| B5 (MARCHF1 RING domain) | 0 |
| B6 (NFX1 RING domain) | 0 |
| B7 (RING1 RING domain) | 0 |

Study 4
Target: ABI1, truncated, D143A, DHFR fusion (Arabidopsis thaliana)
Method: DHFR PCA, deep sequencing
Sample: yeast
Setting: methotrexate growth selection, single substitutions
Together with: (+)-ABA 4.8 µM
Relative to: wild-type fitted maximum
Reading: higher = stronger binding
Starting sequence: PYL1, truncated, DHFR fusion (Arabidopsis thaliana); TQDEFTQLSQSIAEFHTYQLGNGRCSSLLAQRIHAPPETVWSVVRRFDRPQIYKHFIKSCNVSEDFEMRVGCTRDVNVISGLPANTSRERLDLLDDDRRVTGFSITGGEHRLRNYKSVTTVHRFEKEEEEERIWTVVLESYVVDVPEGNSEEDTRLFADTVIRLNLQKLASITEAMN
| Substitution | relative binding score |
| --- | --- |
| A175Q | 82.7% |
| G81Y | 5.71% |
| R99V | -11.5% |
| A30P | 1.96% |
| T39L | 78.1% |
| S80Y | 40.5% |
| D65Q | 60.6% |
| I162C | 21.2% |
| I12E | -11.5% |
| V121A | 16.5% |
| D96G | 1.01% |
| R132M | 78.5% |
| S171Y | 67.4% |
| H55W | 65.3% |
| V70P | 77% |

Study 5
Target: JUN, bZIP domain (human)
Method: DHFR protein complementation
Sample: yeast
Setting: single substitutions, most at no-binding floor
Relative to: wild-type JUN-FOS pair
Reading: higher = stronger binding
Starting sequence: JUN, bZIP domain (human); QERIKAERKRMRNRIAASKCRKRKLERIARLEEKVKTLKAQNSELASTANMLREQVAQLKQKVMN; partner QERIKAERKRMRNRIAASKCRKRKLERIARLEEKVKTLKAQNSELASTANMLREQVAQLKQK
| Substitution | binding fitness [natural log] |
| --- | --- |
| N42I | -1.16 |
| T37K | -0.176 |
| K34M | -0.0535 |
| A29D | -0.552 |
| A49Q | -0.778 |
| E54R | -0.422 |
| K36I | -0.467 |
| T37Q | 0.0504 |
| E54N | -0.443 |
| M51I | -0.242 |
| I28P | -1.19 |
| K36T | -0.417 |
| A57G | -0.503 |
| A49T | -0.168 |
| S47W | -0.302 |
| K34S | -0.147 |
| S47A | -0.0577 |
| A46L | -0.145 |
| Q55E | -0.164 |

Study 6
Target: Histone acetyltransferase KAT6A, both winged helices, GST fusion (KAT6A, Homo sapiens, UniProt Q92794, residues 1-181)
Method: protein binding microarray
Form: double-stranded DNA, one strand shown
Sample: in vitro
Tested at: not given
Setting: 8-mer, flanks averaged, mean of 2 arrays, mostly near background
Relative to: not given
Reading: higher = stronger binding
Residues (chain): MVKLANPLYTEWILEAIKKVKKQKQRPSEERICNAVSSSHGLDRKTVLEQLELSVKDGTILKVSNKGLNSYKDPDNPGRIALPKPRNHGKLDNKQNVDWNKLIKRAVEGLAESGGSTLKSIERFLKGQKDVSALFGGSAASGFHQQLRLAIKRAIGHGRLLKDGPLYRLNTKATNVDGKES
| Strand | E-score |
| --- | --- |
| ACGCCAGG | 0.0298 |
| CGGCAACC | 0.282 |
| ACAATGAT | -0.122 |
| ACTGGCAG | -0.0228 |
| AGATTTCA | -0.0109 |
| ATTGTTAA | -0.133 |
| GTGATACA | -0.0658 |
| CGGTCTGC | 0.224 |
| ATTGTTGC | -0.0304 |
| ATGTACGA | -0.111 |
| TGATTAAA | -0.0145 |
| CCGACTAC | 0.192 |
| CATACCGA | 0.0263 |
| AATTTCCT | -0.209 |
| GTCGCCGA | 0.257 |
| CTGCCACC | -0.151 |
| TGAGTGCA | -0.0684 |
| ATGAAACG | 0.0762 |
| AAGATACC | 0.0383 |
| AATCTGCA | -0.168 |
| CACTGCTG | -0.176 |
| ACGTACGA | 0.0193 |
| GTTAAATA | -0.0101 |
| AACACTGG | -0.0726 |
| ATATTCAT | -0.089 |

Some of these lines once more (study 5):
| Substitution | binding fitness [natural log] |
| --- | --- |
| A49Q | -0.778 |
| A57G | -0.503 |
| S47W | -0.302 |
| N42I | -1.16 |
| E54N | -0.443 |
| A49T | -0.168 |
| S47A | -0.0577 |
